Measurements collected from several papers.
Each line is one published result; not all experiments were run side by side.

| SMILES | system | setting | measurement | result |
| --- | --- | --- | --- | --- |
| CSCOC1C(=O)C2(C)C(OCSC)CC3OCC3(OC(C)=O)C2C(OC(=O)c2ccccc2)C2(O)CC(OC(=O)C(O)C(C=C(C)C)NC(=O)OC(C)(C)C)C(C)=C1C2(C)C (centres unmarked) | male Sprague-Dawley rat, plasma | intravenous, 1 mg/kg | AUC(0-inf) | 261 ng·h/mL |
| C#Cc1cccc(Nc2ncnc3cc(OC)c(OCCCN4CCOCC4)cc23)c1 | Sprague-Dawley rat, plasma | oral, 40 mg/kg | AUC | 20900 ng·h/mL |
| CCCCC1NC(=O)c2ccccc21 (racemic) | Wistar rat, plasma | intravenous, 10 mg/kg | AUC | 13700 ng·h/mL |
| Cc1cc(/C=C/C#N)cc(C)c1Oc1nc(NC2CCN(Cc3ccc(P(C)(C)=O)cc3)CC2)nc2ccsc12 | male Sprague-Dawley rat, plasma | oral, 10 mg/kg | AUC | 1270 ng·h/mL |
| O=c1c2cc(Cl)ccc2sc2c(NCc3ccccc3)nc3ccccc3c12 | male Sprague-Dawley rat, plasma | intravenous, 3 mg/kg, single dose | AUC | 2420 ng·h/mL |
| CN1Cc2c(Cl)cc(Cl)cc2C(c2cccc(S(=O)(=O)NCCNC(=O)C(O)C(O)C(=O)NCCNS(=O)(=O)c3cccc(C4CN(C)Cc5c(Cl)cc(Cl)cc54)c3)c2)C1 (centres unmarked) | male Sprague-Dawley rat, plasma | oral, 11 mg/kg | AUC | < 10 ng·h/mL |
| C[Si]1(C)CNC(=O)c2ccccc21 | rat, plasma | intravenous, 1 mg/kg, single dose | AUC(0-inf) | 574 ng·h/mL |
| CN1Cc2c(Cl)cc(Cl)cc2C(c2cccc(S(=O)(=O)NCCOCCOCCOCCNC(=O)C(O)C(O)C(=O)NCCOCCOCCOCCNS(=O)(=O)c3cccc(C4CN(C)Cc5c(Cl)cc(Cl)cc54)c3)c2)C1 (centres unmarked) | male Sprague-Dawley rat, plasma | oral, 9.4 mg/kg | AUC | 6 ng·h/mL |
| NC(COc1ccccc1C(F)(F)F)c1ccccc1 (centres unmarked) | male Sprague-Dawley rat, serum | intravenous, 5 mg/kg | AUC | 544 ng·h/mL |
| Cc1ccc(OCC(=O)N(Cc2cccs2)c2ccn[nH]2)cc1 | female Sprague-Dawley rat, plasma | oral, 100 mg/kg, single dose | AUC(0-t) | 157 ng·h/mL |
| N#Cc1cnc2cc(OCC3CCNCC3)c(F)cc2c1Nc1cc(F)c(OCc2cccc(Cl)n2)cc1Cl | male Sprague-Dawley rat, plasma | oral, 30 mg/kg | AUC(0-t) | 1300 ng·h/mL |

Some of these lines once more:
| SMILES | system | setting | measurement | result |
| --- | --- | --- | --- | --- |
| CN1Cc2c(Cl)cc(Cl)cc2C(c2cccc(S(=O)(=O)NCCOCCOCCOCCNC(=O)C(O)C(O)C(=O)NCCOCCOCCOCCNS(=O)(=O)c3cccc(C4CN(C)Cc5c(Cl)cc(Cl)cc54)c3)c2)C1 (centres unmarked) | male Sprague-Dawley rat, plasma | oral, 9.4 mg/kg | AUC | 6 ng·h/mL |
| CCCCC1NC(=O)c2ccccc21 (racemic) | Wistar rat, plasma | intravenous, 10 mg/kg | AUC | 13700 ng·h/mL |
